# Measurements from different studies.
# Lines come from different studies, so protocols differ. ± gives the spread as reported.
Structure (SMILES),test,system,conditions,how to read,quantity,result
Clc1cc(-c2cc(Cl)c(Cl)c(Cl)c2)cc(Cl)c1Cl,,fresh water,"20 °C, S30-2 sampler, 30 µm",,log K(PDMS-water),6.28 ± 0.06
CC(=O)N[C@@H](CC(N)=O)C(=O)N[C@@H](CC(N)=O)C(=O)N[C@@H](CC(C)C)C(=O)N[C@H]1CSSC[C@@H](C(=O)N[C@H](C(N)=O)[C@@H](C)O)NC(=O)[C@H](CCCNC(=N)N)NC(=O)[C@H](Cc2c[nH]cn2)NC(=O)[C@H](C)NC(=O)CNC(=O)[C@H](Cc2c[nH]c3ccccc23)NC(=O)[C@H](CC(=O)O)NC(=O)[C@H](CCC(N)=O)NC(=O)[C@H](Cc2c[nH]c3ccccc23)NC(=O)[C@H](C(C)C)NC1=O,isocratic RP-HPLC,C18 column,"pH 7.4, 25 °C, elution method 2",higher = more lipophilic,log retention factor,-0.402
CN1CC[C@]23c4c5ccc(O)c4O[C@H]2[C@@H](O)CC[C@H]3[C@H]1C5,,,phenolate site,,log k protonation constant,9.49
Cc1cc2c(cc1C)[n+]([O-])c1c(OC(=O)N3CCN(C)CC3)cccc1[n+]2[O-],PAMPA,artificial membrane in PBS,"50 µM, 5 h",,log effective permeability,-4.97
CN1CC[C@]23c4c5ccc(O)c4O[C@H]2[C@@H](O)CC[C@@]3(O)[C@H]1C5,,,phenolate site,,log k protonation constant,9.36
Clc1cc(Cl)c(-c2cc(Cl)ccc2Cl)c(Cl)c1,,fresh water,20 °C,,log K(PDMS-water),6.02 ± 0.04
CN1CCN(C(=O)Oc2cccc3c2[n+]([O-])c2cccc(O)c2[n+]3[O-])CC1,PAMPA,artificial membrane in PBS,"50 µM, 5 h",,log effective permeability,-5.96
CC[C@H](C)[C@H](NC(=O)[C@H](CCCNC(=N)N)NC(=O)[C@H](CCC(=O)O)NC(C)=O)C(=O)N[C@H]1CSSC[C@@H](C(=O)N[C@H](C(N)=O)[C@@H](C)O)NC(=O)[C@H](CCCNC(=N)N)NC(=O)[C@H](Cc2c[nH]cn2)NC(=O)[C@H](Cc2cccc3ccccc23)NC(=O)CNC(=O)[C@H](Cc2c[nH]c3ccccc23)NC(=O)[C@H](CC(=O)O)NC(=O)[C@H](CCC(N)=O)NC(=O)[C@H](Cc2cccc3ccccc23)NC(=O)[C@H](C(C)C)NC1=O,"isocratic RP-HPLC, C18","32% acetonitrile, phosphate pH 7.4, 1% TFA",25 °C,,log retention factor,0.514
c1ccc2c(c1)-c1ccc3ccc4cccc5cc-2c1c3c45,,fresh water,"20 °C, SSP sampler, 100 µm",,log K(PDMS-water),5.33 ± 0.11
CC[C@H](C)[C@H](NC(=O)[C@H](CO)NC(=O)[C@H](CCCNC(=N)N)NC(C)=O)C(=O)N[C@H]1CSSC[C@@H](C(=O)N[C@H](C(N)=O)[C@@H](C)O)NC(=O)[C@H](CCCNC(=N)N)NC(=O)[C@H](Cc2c[nH]cn2)NC(=O)[C@H](C)NC(=O)CNC(=O)[C@H](Cc2c[nH]c3ccccc23)NC(=O)[C@H](CC(=O)O)NC(=O)[C@H](CCC(N)=O)NC(=O)[C@H](Cc2cccc3ccccc23)NC(=O)[C@H](C(C)C)NC1=O,isocratic RP-HPLC,C18 column,"pH 7.4, 25 °C, elution method 2",higher = more lipophilic,log retention factor,0.068
CN1CC[C@]23c4c5ccc(O)c4O[C@H]2[C@@H](O)C=C[C@H]3[C@H]1C5,,,,,log tautomerization constant,-0.43
Clc1cc(Cl)c(-c2ccc(Cl)c(Cl)c2Cl)cc1Cl,,fresh water,"20 °C, S30-1 sampler, 30 µm",,log K(PDMS-water),6.42 ± 0.06
CC[C@H](C)[C@H](NC(=O)[C@H](CO)NC(=O)[C@H](CCCNC(=N)N)NC(C)=O)C(=O)N[C@H]1CSSC[C@@H](C(=O)N[C@H](C(N)=O)[C@@H](C)O)NC(=O)[C@H](CCCNC(=N)N)NC(=O)[C@H](Cc2c[nH]cn2)NC(=O)[C@H](C)NC(=O)CNC(=O)[C@H](Cc2c[nH]c3ccccc23)NC(=O)[C@H](CC(=O)O)NC(=O)[C@H](CCC(N)=O)NC(=O)[C@H](Cc2ccc3ccccc3c2)NC(=O)[C@H](C(C)C)NC1=O,isocratic RP-HPLC,C18 column,"pH 7.4, 25 °C, elution method 2",higher = more lipophilic,log retention factor,0.091
CN1CC[C@]23c4c5ccc(O)c4O[C@H]2[C@@H](O)C=C[C@@]3(O)[C@H]1C5,,,phenolate site,,log k protonation constant,9.17

# Some of these lines once more:
Structure (SMILES),test,system,conditions,how to read,quantity,result
c1ccc2c(c1)-c1ccc3ccc4cccc5cc-2c1c3c45,,fresh water,"20 °C, SSP sampler, 100 µm",,log K(PDMS-water),5.33 ± 0.11
CC[C@H](C)[C@H](NC(=O)[C@H](CO)NC(=O)[C@H](CCCNC(=N)N)NC(C)=O)C(=O)N[C@H]1CSSC[C@@H](C(=O)N[C@H](C(N)=O)[C@@H](C)O)NC(=O)[C@H](CCCNC(=N)N)NC(=O)[C@H](Cc2c[nH]cn2)NC(=O)[C@H](C)NC(=O)CNC(=O)[C@H](Cc2c[nH]c3ccccc23)NC(=O)[C@H](CC(=O)O)NC(=O)[C@H](CCC(N)=O)NC(=O)[C@H](Cc2cccc3ccccc23)NC(=O)[C@H](C(C)C)NC1=O,isocratic RP-HPLC,C18 column,"pH 7.4, 25 °C, elution method 2",higher = more lipophilic,log retention factor,0.068
